{"data": "Published values from different studies", "note": "Compare with care: the assays were run in different laboratories."}
{"SMILES": "O[C@@H](CNCCCC(F)(F)F)c1cc(Cl)cc2c1-c1ccc(Cl)cc1C2", "cell line": "HepG2", "assay": "cell growth or viability, MTT", "setting": "72 h", "measurement": "CC50", "result": "6.9 µM"}
{"SMILES": "CCOC(=O)/C(C#N)=C(\\O)c1ccc(NC(=O)c2cccs2)cc1", "cell line": "K562", "assay": "cell growth or viability", "measurement": "IC50", "result": "35.9 µM"}
{"SMILES": "Cc1ccc(N(C)c2ccc(NC(=O)CN(C)c3ccccc3N3CCCC3=O)cn2)cc1", "cell line": "HepG2", "assay": "cell growth or viability, ATP luminescence", "setting": "48 h", "measurement": "CC50", "result": "> 40 µM"}
{"SMILES": "COc1cc(N2CCC(N3CCN(C)CC3)CC2)ccc1Nc1ncc(Cl)c(Nc2ccccc2P(C)(C)=O)n1", "cell line": "MDR1", "test system": "MDCK-MDR1", "measurement": "Papp A→B", "result": "1.37 to 4.21 nm/s"}
{"SMILES": "Cc1ccc(Oc2ccc(NC(=O)COc3ccccc3N3CCCC3=O)cc2)cc1", "cell line": "HepG2", "assay": "cell growth or viability, ATP luminescence", "setting": "48 h", "measurement": "CC50", "result": "> 40 µM"}
{"SMILES": "O=[N+]([O-])c1cnc2ccc(F)cc2c1O", "cell line": "K562", "assay": "cell growth or viability", "measurement": "IC50", "result": "113 µM"}
{"SMILES": "CCC1=C(CC)/C(=C/NC23CC4CC(CC(C4)C2)C3)N=C1c1cc2ccccc2[nH]1", "cell line": "HepG2", "assay": "cell growth or viability, MTT", "setting": "48 h", "measurement": "IC50", "result": "7.01 µM"}
{"SMILES": "COc1ccc(S(=O)(=O)ON=C2C=C(C)C(=O)C(C)=C2)cc1", "cell line": "DLD-1", "assay": "cell growth or viability", "measurement": "CC50", "result": "8.35 µM"}
{"SMILES": "CC1(C(=O)O)CCC(C(=O)Nc2ccc(Nc3ccccc3)cc2)C1(C)C (stereo not shown)", "cell line": "K562", "assay": "cell growth or viability", "measurement": "IC50", "result": "222 µM"}
{"SMILES": "Nc1ccn([C@@H]2O[C@H](CO)[C@@H](O)C2(F)F)c(=O)n1", "cell line": "HEK293", "assay": "cell growth or viability, MTT", "setting": "1.25 µg/mL, 48 h", "measurement": "viability", "result": "59%"}
{"SMILES": "COc1cccc(NC(=O)Nc2ccc(Oc3nc4ccccc4n4cnnc34)cc2)c1", "cell line": "WI-38", "assay": "cell growth or viability, MTT", "setting": "100 µM, 24 h", "measurement": "viability", "result": "46%"}
{"SMILES": "Cc1cc(O)c(C)c(O)c1C(=O)O", "cell line": "K562", "assay": "cell growth or viability", "measurement": "IC50", "result": "> 200 µM"}
{"SMILES": "Cc1ccc(N(C)c2ccc(NC(=O)CN(C)c3ccccc3N3CCCC3=O)cc2)c(F)c1", "cell line": "HepG2", "assay": "cell growth or viability, ATP luminescence", "setting": "48 h", "measurement": "CC50", "result": "> 40 µM"}
{"SMILES": "CC(=O)c1nn(-c2ccc(C)cc2)/c(=N/N=C(\\C)c2ccc(NC(=O)c3ccccc3)cc2)s1", "cell line": "WI-38", "assay": "cell growth or viability, MTS", "setting": "0.156 µM, 24 h", "measurement": "viability", "result": "52.8%"}
{"SMILES": "O=[N+]([O-])c1cnc2ccccc2c1O", "cell line": "K562", "assay": "cell growth or viability", "measurement": "IC50", "result": "> 674 µM"}
{"SMILES": "Cc1ccc(N(C)c2ccc(NC(=O)CN(C)c3ccccc3N3CCCC3=O)c(F)c2)cc1", "cell line": "HepG2", "assay": "cell growth or viability, ATP luminescence", "setting": "48 h", "measurement": "CC50", "result": "> 40 µM"}
{"SMILES": "COC1/C=C/OC2(C)Oc3c(C)c(O)c4c(O)c(c5c(nc6cc(C)ccn65)c4c3C2=O)NC(=O)/C(C)=C\\C=C\\C(C)C(O)C(C)C(O)C(C)C(OC(C)=O)C1C (stereo not shown)", "cell line": "K562", "assay": "cell growth or viability", "measurement": "IC50", "result": "70.4 µM"}
{"SMILES": "Cc1ccc(N(C)c2ccc(NC(=O)CN(C)c3ccccc3N3CCCC3=O)cc2)cc1F", "cell line": "HepG2", "assay": "cell growth or viability, ATP luminescence", "setting": "48 h", "measurement": "CC50", "result": "> 40 µM"}
{"SMILES": "Cc1cccc(O)c1C(=O)O", "cell line": "K562", "assay": "cell growth or viability", "measurement": "IC50", "result": "> 200 µM"}
{"SMILES": "Cc1ccc(Cc2ccc(NC(=O)CN(C)c3ccccc3N3CCCC3=O)cc2)cc1", "cell line": "HepG2", "assay": "cell growth or viability, ATP luminescence", "setting": "48 h", "measurement": "CC50", "result": "> 40 µM"}
{"SMILES": "O=c1oc2cccnc2c(=O)n1Cc1ccc([N+](=O)[O-])o1", "cell line": "K562", "assay": "cell growth or viability", "measurement": "IC50", "result": "189 µM"}
{"SMILES": "N#Cc1ccc(Oc2ccc(NC(=O)CNc3ccccc3N3CCCC3=O)cc2)cc1", "cell line": "HepG2", "assay": "cell growth or viability, ATP luminescence", "setting": "48 h", "measurement": "CC50", "result": "> 40 µM"}
{"SMILES": "CNC(=O)c1cc(Oc2ccc(NC(=O)Nc3ccc(Cl)c(C(F)(F)F)c3)cc2)ccn1", "cell line": "WI-38", "assay": "cell growth or viability, MTT", "setting": "6.25 µM, 24 h", "measurement": "viability", "result": "63.7%"}
{"SMILES": "Cc1ccc(N(c2ccc(NC(=O)CN(C)c3ccccc3N3CCCC3=O)cn2)C(C)C)cc1F", "cell line": "HepG2", "assay": "cell growth or viability, ATP luminescence", "setting": "48 h", "measurement": "CC50", "result": "> 40 µM"}
{"SMILES": "N#CC(C(=O)Nc1cccc(C(F)(F)F)c1)=C1Sc2nc3ccc(S(=O)(=O)N4CCCC4)cc3nc2S1", "cell line": "WI-38", "assay": "cell growth or viability, MTT", "setting": "100 µM, 24 h", "measurement": "viability", "result": "43%"}
{"note": "Repeated from above:"}
{"SMILES": "Cc1ccc(N(C)c2ccc(NC(=O)CN(C)c3ccccc3N3CCCC3=O)cc2)c(F)c1", "cell line": "HepG2", "assay": "cell growth or viability, ATP luminescence", "setting": "48 h", "measurement": "CC50", "result": "> 40 µM"}
{"SMILES": "CC(=O)c1nn(-c2ccc(C)cc2)/c(=N/N=C(\\C)c2ccc(NC(=O)c3ccccc3)cc2)s1", "cell line": "WI-38", "assay": "cell growth or viability, MTS", "setting": "0.156 µM, 24 h", "measurement": "viability", "result": "52.8%"}
{"SMILES": "O=[N+]([O-])c1cnc2ccccc2c1O", "cell line": "K562", "assay": "cell growth or viability", "measurement": "IC50", "result": "> 674 µM"}
